Results from different studies.
Compare with care: the assays were run in different laboratories. Several values in a cell are separate wells, animals, samples, runs or records. Numbers after ± are the reported error. In brackets after ≈: the same amount, converted by molar mass.
UniProt P00519, sequence (whole entry, unmodified, looked up): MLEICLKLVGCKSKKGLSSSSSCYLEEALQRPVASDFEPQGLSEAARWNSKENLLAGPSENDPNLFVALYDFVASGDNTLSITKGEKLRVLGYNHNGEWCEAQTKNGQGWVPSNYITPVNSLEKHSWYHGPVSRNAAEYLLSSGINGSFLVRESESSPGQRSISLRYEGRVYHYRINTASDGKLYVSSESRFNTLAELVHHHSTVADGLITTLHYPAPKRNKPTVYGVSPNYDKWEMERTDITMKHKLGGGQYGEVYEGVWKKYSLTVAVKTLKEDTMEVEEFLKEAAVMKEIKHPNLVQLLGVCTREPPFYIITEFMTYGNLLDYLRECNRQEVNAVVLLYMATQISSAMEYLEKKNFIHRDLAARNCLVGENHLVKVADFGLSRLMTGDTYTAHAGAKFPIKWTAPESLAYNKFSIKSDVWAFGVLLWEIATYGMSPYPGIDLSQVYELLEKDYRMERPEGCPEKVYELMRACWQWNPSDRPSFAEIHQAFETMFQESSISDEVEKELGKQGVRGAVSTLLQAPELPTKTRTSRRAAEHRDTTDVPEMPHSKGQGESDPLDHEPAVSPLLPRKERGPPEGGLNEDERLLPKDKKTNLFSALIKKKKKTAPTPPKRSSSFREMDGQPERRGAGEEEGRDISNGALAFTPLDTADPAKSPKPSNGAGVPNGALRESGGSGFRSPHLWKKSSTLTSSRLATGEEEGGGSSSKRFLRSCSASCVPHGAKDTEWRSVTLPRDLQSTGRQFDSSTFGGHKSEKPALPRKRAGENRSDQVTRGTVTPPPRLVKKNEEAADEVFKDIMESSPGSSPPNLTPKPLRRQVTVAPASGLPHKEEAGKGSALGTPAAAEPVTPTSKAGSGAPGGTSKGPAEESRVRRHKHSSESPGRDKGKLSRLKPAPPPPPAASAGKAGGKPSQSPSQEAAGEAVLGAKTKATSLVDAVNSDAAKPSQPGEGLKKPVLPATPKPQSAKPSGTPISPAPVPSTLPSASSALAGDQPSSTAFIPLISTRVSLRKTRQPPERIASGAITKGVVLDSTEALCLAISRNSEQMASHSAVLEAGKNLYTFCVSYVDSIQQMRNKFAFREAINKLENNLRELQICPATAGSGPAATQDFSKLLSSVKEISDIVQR

SMILES | tested on | test | test system | conditions | how to read | endpoint | result
c1ccc(CN2CCOCCOCCN(CCCCCCCCN3CCOCCOCCN(CCCCCCCCN4CCOCCOCCN(Cc5ccccc5)CCOCCOCC4)CCOCCOCC3)CCOCCOCC2)cc1 | Klebsiella pneumoniae |  | ATCC BAA-2146 | half MIC, with: ciprofloxacin |  | FIC index | 0.6
CC1(C)C(NC(=O)C(=NOC2(C(=O)O)CC2)c2csc(N)n2)C(=O)N1OS(=O)(=O)O (centres unmarked) | Enterobacter aerogenes | agar dilution | ATCC 13048, susceptible |  |  | MIC | 0.125 mg/L (≈ 0.27 µM)
CC(=O)O[C@@H]1[C@@H](OC(C)=O)[C@H](Sc2sc(C(=O)c3ccc(Cl)cc3)c(N)c2-c2nc3ccccc3s2)OC[C@H]1OC(C)=O | herpes simplex virus 1 | plaque reduction |  | non-toxic dose NG, mean over three titres |  | viral reduction | 16.7%
OB(O)c1ccc(C(F)(F)F)s1 | Listeria monocytogenes |  |  | 100 µM, 10 h | baseline: untreated | growth | 60.2% and 86% and 80.6% and 64.6% and 81.1%
CCOC(=O)c1cc(-c2nc3ccccc3s2)c(=O)n(NS(=O)(=O)c2ccccc2)c1N | herpes simplex virus 1 | viral replication, plaque | Vero | non-toxic dose, mean of three titres |  | plaque reduction | 0%
C=C(NC(=O)c1csc(-c2nc3c(cc2O)-c2nc(cs2)C(=O)NC(C(C)O)C(=O)NC(=C(C)OC)c2nc(cs2)C(=O)NC2c4nc(cs4)C(=O)NC(COC(=O)c4c5c6c(cccc6n4O)COC(=O)C(OC4CC(C)(O)C(N(C)C)C(C)O4)C2OC5)c2nc-3cs2)n1)C(N)=O (centres unmarked) | Staphylococcus epidermidis | microbial growth, broth dilution |  | clinical isolate |  | MIC90 | 0.0625 mg/L (≈ 0.0435 µM)
C=C[C@]1(C)C[C@@H](OC(=O)CSc2ccc(NC(=O)c3ccco3)cc2)[C@]2(C)[C@H](C)CC[C@]3(CCC(=O)[C@H]32)[C@@H](C)[C@@H]1O | Mycoplasma gallisepticum |  | infected chickens, lung | intramuscular, 30 mg/kg daily x3, 72 h |  | lung mycoplasma count | 4.86 log10 CFU/mL and 5.07 log10 CFU/mL and 4.89 log10 CFU/mL and 5.65 log10 CFU/mL and 5.2 log10 CFU/mL and 4.35 log10 CFU/mL and 3.99 log10 CFU/mL
CCc1ccc(-c2nc(N)c3c(Nc4ccc(F)cc4)n[nH]c3n2)cc1 | rhinovirus B48 | viral cytopathic effect | HeLa |  |  | IC50 | 2.08 µM
CC(CCCOC(=O)CCC[N+](C)(C)C)C1CCC2C3CCC4CC(OC(=O)CCC[N+](C)(C)C)CCC4(C)C3CCC12C (centres unmarked) | Pseudomonas aeruginosa | microbial growth, disc diffusion | ATCC27853 | 15.6 µg/disc, 24 h |  | inhibition zone | 7 mm
FC(F)(F)c1cccc(CNc2nc(NC3CCN(Cc4ccccc4)CC3)c3nc[nH]c3n2)c1 | Cryptococcus neoformans | RNA-seq, refers to: CNAG_03262 mRNA |  | 48 µg/mL, 3 h | baseline: untreated wild type | log2 fold change | 0.206
Cc1cc(Cl)cc(S(C)=NC#N)c1NC(=O)c1cc(Br)nn1-c1ncccc1Cl (centres unmarked) | Plutella xylostella |  | Raphanus sativus field plot | 50 ppm, 72 h, 10% wettable powder |  | larval viability | 13.8% and 8.6% and 9.7%
O=C(Nc1ccc([C@H]2[C@@H](F)[C@@H](F)C[C@@H](F)[C@H]2F)cc1)C1CC1(F)F (some centres unmarked) |  | liver microsome stability | cynomolgus liver microsomes | 1 µM |  | hepatic clearance | 0.294 L/h/kg
Cc1nn(-c2cccc(N)c2)c(=O)c2cnc(Nc3ccc(N4CCNCC4)cc3)nc12 | Tyrosine-protein kinase ABL1 (ABL1, Homo sapiens, UniProt P00519, E255K) | enzyme activity, inhibitor |  |  |  | IC50 | 0.467 µM
C=C1C(=O)OC2C1CCC(C)(O)C13C=CC(C)(C21)C1(C3)C(=O)OC2C3C(C)C(=O)CC3C(=C)CC(OC(C)=O)C21 (centres unmarked) | Danio rerio | Oil Red O staining |  | 2.5 and 10 µM, HFD-fed larvae NAFLD model |  | liver lipid droplets | decreased
Nc1nc(-c2ccccc2)nc2[nH]nc(Nc3cccc(F)c3F)c12 | rhinovirus B48 | viral cytopathic effect | HeLa |  |  | IC50 | 0.16 µM
Cc1cc(C(=O)Nc2nc3cccc(C)c3n2[C@H]2CCCCN(C(=O)/C=C/CN(C)C)C2)ccn1 | Trypanosoma brucei brucei |  | Lister 427 | 0.069 µM, 0 h, kill kinetics |  | proliferation | 100%
CNCc1ccc2c(c1)C[C@H](CNC(=N)N)[C@H]2NC(=O)C(=O)Nc1ccc(Cl)c(F)c1 | Human immunodeficiency virus 1 | viral infection, Env pseudovirus | TZM-bl, C2101.c01 CRF01_AE |  |  | IC80 | > 100 µM
COC1C=COC2(C)Oc3c(C)c(O)c4c(c3C2=O)C2=NC3(CCN(CC(C)C)CC3)NC2=C(NC(=O)C(C)=CC=CC(C)C(O)C(C)C(O)C(C)C(OC(=O)Nc2cccnn2)C1C)C4=O (centres unmarked) | Mycobacteroides abscessus | intracellular growth, visual read | THP-1 derived macrophages, ATCC 19977 |  |  | IC90 | 0.399 µM
Cc1cccc(Nc2n[nH]c3nc(-c4ccccc4F)nc(N)c23)c1 | rhinovirus B48 | viral cytopathic effect | HeLa |  |  | IC50 | 4.32 µM
Cc1cccc2c1N(C(=O)n1ccnn1)CC2 | Arabidopsis thaliana |  | kai2 mutant | 30 µM, 72 h |  | germination rate | 61.2%
Cc1ccc(-c2nc(N)c3c(Nc4ccc(F)cc4)n[nH]c3n2)cc1F | rhinovirus B48 | viral cytopathic effect | HeLa |  |  | IC50 | 3.62 µM
O=C(N/N=C/c1cc[n+](CC2CC2)c2ccccc12)c1ccc2ccc(C(=O)N/N=C/c3cc[n+](CC4CC4)c4ccccc34)nc2n1 | 22CTA telomeric G4-DNA antiparallel | FRET melting |  | 1 µM, K10 buffer, DNA 0.2 µM |  | ΔTm | 20.6 ± 0.4 °C

SMILES | tested on | test | test system | conditions | how to read | endpoint | result
C[C@@H]1C(=O)O[C@@H](C)/C=C/C=C\[C@@H](C)[C@@H]2C=C[C@@H]3C[C@@]4(C)O[C@H]4[C@@H](C)[C@H]3[C@@H]2C(=O)C(Cl)(Cl)C1=O | Staphylococcus aureus |  | MSSA clinical isolate | resistant: PEN,CIP,CLI,DAP,ERY,MXF |  | MIC | 0.0125 mg/L (≈ 0.0252 µM)
C=CC(=O)Nc1cccc(Cn2ncc3cnc(Nc4cnn(CCOC)c4)nc32)c1 | human ABL1(E255K)-phosphorylated | KINOMEscan |  | 100 nM | baseline: control | binding | 6.1%
Cc1ccc(S(=O)(=O)Nn2c3c(cc(-c4nc5ccccc5s4)c2=O)CCCC3)cc1 | herpes simplex virus 1 | viral replication, plaque | Vero | non-toxic dose, mean of three titres |  | plaque reduction | 40%
CC[C@H](C)CCCCC(=O)N[C@@H](CCN)C(=O)N[C@H](C(=O)N[C@@H](CCN)C(=O)N[C@H]1CCNC(=O)[C@H]([C@@H](C)O)NC(=O)[C@H](CCN)NC(=O)[C@H](CCN)NC(=O)[C@H](CC(C)C)NC(=O)[C@@H](CC(C)C)NC(=O)[C@H](CCN)NC1=O)[C@@H](C)O | Pseudomonas aeruginosa |  | BAA-2797, BALB/c mouse peritonitis, spleen | dose not given |  | bacterial load | 2.2 log CFU and 2.3 log CFU and 1.9 log CFU
Cc1ccc(Nc2n[nH]c3nc(-c4ccc(F)cc4)nc(N)c23)cc1 | rhinovirus B48 | viral cytopathic effect | HeLa |  |  | IC50 | 8.59 µM
CCN(CC)CC#CCNc1ccnc2cc(Cl)ccc12 | Plasmodium falciparum | parasite growth, SYBR Green I | 3D7 | single experiment |  | IC50 | 0.0381 µM
CC1(C)[C@H](NC(=O)/C(=N\OCC(=O)N2CCC(C(=O)O)CC2)c2csc(N)n2)C(=O)N1OS(=O)(=O)O | Enterobacter aerogenes | agar dilution | ATCC 13048, susceptible |  |  | MIC | 4 mg/L (≈ 7.29 µM)
c1ccc(CN2CCOCCOCCN(CCCCCCCCCCCCN3CCOCCOCCN(CCCCCCCCCCCCN4CCOCCOCCN(Cc5ccccc5)CCOCCOCC4)CCOCCOCC3)CCOCCOCC2)cc1 | Klebsiella pneumoniae | tetracycline activity | ATCC BAA-2146 | 2.5 µM, with: tetracycline | baseline: tetracycline alone | fold enhancement | 2 fold
C[n+]1cccc2cc(/C=N/NC(=O)c3ccc4ccc(C(=O)N/N=C/c5ccc6c(ccc[n+]6C)c5)nc4n3)ccc21 | 22CTA telomeric G4-DNA antiparallel | FRET melting |  | 1 µM, K10 buffer, DNA 0.2 µM, with: ds26 10 µM |  | ΔTm | 11 ± 0.2 °C
COC1CN([C@H]2CC[C@H]([C@@]3(C)Oc4c(Cl)cc(C(=O)NCc5c(SC)cc(C)[nH]c5=O)c(C)c4O3)CC2)C1 |  | RNA-seq, refers to: SEPTIN10 | human, whole blood | dose not given, 24 h | baseline: pretreatment baseline | log2 fold change | 1.84
CC(=O)OC[C@H]1O[C@@H](Sc2sc(C(=O)c3ccc(Cl)cc3)c(N)c2-c2nc3ccccc3s2)[C@H](OC(C)=O)[C@@H](OC(C)=O)[C@H]1OC(C)=O | herpes simplex virus 1 | plaque reduction |  | non-toxic dose NG, mean over three titres |  | viral reduction | 10%
c1ccc(CN2CCOCCOCCN(CCCCCCCCCCCCCCN3CCOCCOCCN(CCCCCCCCCCCCCCN4CCOCCOCCN(Cc5ccccc5)CCOCCOCC4)CCOCCOCC3)CCOCCOCC2)cc1 | Klebsiella pneumoniae |  | ATCC BAA-2146 | half MIC, with: ciprofloxacin |  | FIC index | 0.85
Nc1nc(-c2ccc(C(F)(F)F)cc2)nc2[nH]nc(Nc3ccc(F)cc3)c12 | rhinovirus B48 | viral cytopathic effect | HeLa |  |  | IC50 | 3.25 µM
C[N+](C)(C)CCO.O=C([O-])C(Cl)Cl | Solanum nigrum | herbicidal activity |  | 15 mg/mL, 21 days, pre-emergence greenhouse |  | inhibition | 0%
CC1C=CC=CC(C)C2C=CC3CC(C)(O)C(Cl)C(C)C3C2C(=O)C(Cl)(Cl)C(=O)C(C)C(=O)O1 (centres unmarked) | Staphylococcus aureus |  | MSSA clinical isolate | resistant: CIP,DAP,MXF |  | MIC | 0.025 mg/L (≈ 0.047 µM)
CC(C)(C)NCC(SS(=O)(=O)O)c1ccccc1 (centres unmarked) | Schistosoma mansoni |  | mice | 600 mg/kg single dose, 1056 h, dosed day 1, perfused 44 | baseline: vehicle | male worm burden reduction | -0.893%
COC1C=COC2(C)Oc3c(C)c(O)c4c(c3C2=O)C2=NC3(CCN(CC(C)C)CC3)NC2=C(NC(=O)C(C)=CC=CC(C)C(O)C(C)C(O)C(C)C(OC(=O)Nc2cnccn2)C1C)C4=O (centres unmarked) | Mycobacteroides abscessus | bacterial growth | subsp. massiliense clinical isolate | slow grower |  | IC90 | 0.016 µM
CN(C)c1ccc(Nc2n[nH]c3nc(-c4ccccc4)nc(N)c23)cc1 | rhinovirus B48 | viral cytopathic effect | HeLa |  |  | IC50 | 0.45 µM
Nc1ncc(-c2cc(-c3cnn(CC(F)(F)F)c3)ncc2F)nc1C(=O)NC1CNCC(F)C1 (centres unmarked) | LATS2 | KINOMEscan |  | 1 µM | baseline: DMSO control | remaining binding | 100%
Cc1cccc(-c2nc(N)c3c(Nc4ccc(F)cc4)n[nH]c3n2)c1 | rhinovirus B48 | viral cytopathic effect | HeLa |  |  | IC50 | 5.25 µM
c1ccc(CN2CCOCCOCCN(CCCCCCCCCCN3CCOCCOCCN(CCCCCCCCCCN4CCOCCOCCN(Cc5ccccc5)CCOCCOCC4)CCOCCOCC3)CCOCCOCC2)cc1 | Klebsiella pneumoniae |  | ATCC BAA-2146 | 2.5 µM, with: tetracycline |  | FIC index | 1
CCCCNCCO.O=C(O)C(Cl)Cl | Solanum nigrum | herbicidal activity |  | 15 mg/mL, 21 days, pre-emergence greenhouse |  | inhibition | 0%

A few entries again:
SMILES | tested on | test | test system | conditions | how to read | endpoint | result
C=C1C(=O)OC2C1CCC(C)(O)C13C=CC(C)(C21)C1(C3)C(=O)OC2C3C(C)C(=O)CC3C(=C)CC(OC(C)=O)C21 (centres unmarked) | Danio rerio | Oil Red O staining |  | 2.5 and 10 µM, HFD-fed larvae NAFLD model |  | liver lipid droplets | decreased
Nc1nc(-c2ccccc2)nc2[nH]nc(Nc3cccc(F)c3F)c12 | rhinovirus B48 | viral cytopathic effect | HeLa |  |  | IC50 | 0.16 µM
